Published values collected from several papers.
Lines come from different studies, so protocols differ. Numbers after ± are the reported error.

O=C(NCc1ccc2c(c1)CN(C(=O)c1cc(-c3ccccc3)no1)C2)C1C=CC=CC=C1 gave a half-life of 0.39 h (CD-1 mouse liver microsomes; pH 7.4, added: NADPH).
CCCC/C=C/C(=O)N[C@@H](Cc1cc(F)cc(F)c1)C(=O)N[C@H]1COC(=O)[C@@H]2CCCN2C(=O)[C@H](C)NC(=O)[C@@H]2C[C@@H](C)CCN2C(=O)[C@@H]2CCCN2C1=O has a half-life of 1.92 h (H-D exchange, 1H NMR, measured: alanine amide hydrogen; CD3OD; 25 °C).
With O=S(=O)(Cl)c1cc(C(F)(F)F)cc(C(F)(F)F)c1 the half-life was < 0.0167 h (chemical stability, HPLC-MS; BBS buffer with acetonitrile; pH 10.2).
Cn1cnc([N+](=O)[O-])c1Sc1ccccc1C(=O)NCCC(N)=O has a half-life of 0.878 h (blood stability; Beagle dog blood; 1 µM, 37 °C).
Cc1c(Cc2ccc(Cl)c(OC(C)C(=O)O)c2)c2ccc(C(=O)NC(C)c3ccc(C(C)(C)C)cc3)cc2n1CC1CC1 (stereo not drawn) gave a half-life of > 1 h (human liver microsomes; 1 µM, added: microsomes 1 mg/mL).
O=Cc1cc(C(F)(F)F)ccc1B(O)O has a half-life of 110 h (reactivity with N-α-acetyl-lysine, HPLC-MS; pH 10.2).
N[C@@H](CC(=O)O)C(=O)OC(C(=O)O)c1ccc(Br)cc1[N+](=O)[O-] (mixture of isomers) gave a half-life of 19.3 ± 0.6 h (hydrolysis, 1H NMR; aqueous citrate-ammonium sulfate, 12.5% DMSO-d6; pH 4.2, room temperature, dark, isomer B).
For C=CC(=O)Nc1cccc(Cn2ncc3cnc(Nc4cnn(CCOC)c4)nc32)c1, the half-life was 3.17 h (human whole blood; 5 µM).
With O=C(O)Cc1ccccc1Nc1c(Cl)cccc1Cl the half-life was 0.182 h (human liver microsomes; 1 nM, 0 to 60 min, 37 °C).
With Cc1c(Cc2cncc(O[C@H](C)C(=O)O)c2)c2ccc(C(=O)N[C@@H](C)c3ccc(C(C)(C)C)cc3)cc2n1CC1CCC1 the half-life was 0.83 h (human liver microsomes).
Cc1ccc(C(C)C)cc1.O=C(N=P(c1ccccc1)(c1ccccc1)c1ccccc1)c1[c-]cccc1.[Cl-].[Ru+2] gave a half-life of ~216 h (DMSO-d6).
The half-life of Cc1c(Cc2cccc(OC(C)(C)C(=O)O)c2)c2ccc(C(=O)N[C@H](C)c3ccc(C(C)(C)C)cc3)cc2n1C is reported as 0.689 h (human liver microsomes).
The half-life of CN(Cc1cc(C2CC2)on1)C(=O)c1cccc(-c2ccc(F)cc2)c1 is reported as > 2 h (human liver microsomes; 2 µM, pH 7.5, added: 1-aminobenzotriazole 500 µM preincubated).
O=CC1C(=O)Nc2ccccc21 (stereo not drawn) gave a half-life of 65.8 h (reactivity with N-α-acetyl-lysine, HPLC-MS; pH 10.2).
With Clc1cccnc1 the half-life was 27.4 h (pH 7.4).
With CSCc1cn(-c2cccc(C(=O)N3CCC(c4nc(-c5ccccc5)n[nH]4)CC3)c2)nn1 the half-life was 0.02 h (CD-1 mouse liver microsomes; pH 7.4, added: NADPH).
The half-life of O=C(Cc1ccc(F)cc1)NCCOc1ccc(-c2ccc(F)cc2)nn1 is reported as 2.3 ± 0.6 h (oral, 20 mg/kg).
For CC(C)Cn1cc(Cc2cccc(OC(C)(C)C(=O)O)c2)c2cc(F)c(C(=O)N[C@@H](C)c3cccc(C(C)(C)C)c3)cc21, the half-life was > 1 h (human liver microsomes; 1 µM, added: microsomes 1 mg/mL).
The half-life of CN(C(=O)OCc1cc(C(=O)O)ccc1OP(=O)(O)O)C(=O)c1ccc(N2C(=S)N(c3ccc(C#N)c(C(F)(F)F)c3)C(=O)C2(C)C)cc1F is reported as > 2 h (HBSS; 10 µM, 2 h incubation, pH 6.5).
For O=C(NC1CCC(F)(F)CC1)C(c1cncnc1)N(C(=O)C(F)Cl)c1ccc(OC(F)(F)F)cc1 (stereo not drawn), the half-life was > 2.42 h (mouse liver microsomes; concentration not given, pH 7.4).
For CCOC(=O)[C@H](CCCNC(N)=O)NC(=O)[C@H](Cc1c[nH]c2ccccc12)NC(=O)[C@@H]1CCCCN1C(=O)[C@H](Cc1ccccc1)N(C)C(=O)CCl, the half-life was 22.6 h (MALDI MS; PaTu 8988t conditioned DMEM; 10 µM).
For Cc1noc(C)c1Br, the half-life was 837 h (pH 7.4).
The half-life of Cc1cc(C)nc(SCC(=O)Nc2ncc(Cc3cccc4ccccc34)s2)n1 is reported as > 24 h (male human serum; 150 µM, 37 °C).
With O=C(N1CCCCC1)C12CC(c3ccccc3)(C1)C2(Cl)Cl the half-life was 0.433 h (metabolic stability; human liver microsomes; 2 µM, pH 7.4).
OB(O)c1sccc1/C=N/OCc1ccccc1 gave a half-life of 1.97 h (UV-visible spectroscopy; PBS; 80 µM, pH 7.4).
For O=Cc1ccc2cccc(O)c2n1, the half-life was > 24 h (reactivity with N-α-acetyl-lysine, HPLC-MS; pH 10.2).
Cc1c(Cc2cccc(OC(C)(C)C(=O)O)c2)c2ccc(C(=O)N[C@@H](C)c3cccc(C(C)(C)C)c3)cc2n1CC(C)(C)C gave a half-life of 0.691 h (human liver microsomes).
N=C(N)NCCC[C@@H]1NC(=O)[C@H](CO)NC(=O)[C@@H](NC(=O)[C@H](CO)NC(=O)[C@H](CO)NC(=O)[C@H](Cc2c[nH]c3ccccc23)NC(=O)CNC(=O)[C@H](CO)NC(=O)[C@@H](N)Cc2c[nH]c3ccccc23)CSSC[C@@H](C(=O)NCC(=O)O)NC(=O)[C@H](CO)NC1=O gave a half-life of 0.302 h (patients, plasma; intravenous, 5 mg/kg, thrice weekly, median).
With Clc1ccncc1 the half-life was 42.2 h (pH 7.4).
CC[C@H](C)[C@H](NC(=O)[C@H](C)NC(=O)[C@H](CCC(=O)O)NC(=O)c1ccc2c(c1)C(=O)OC21c2ccc(O)cc2Oc2cc(O)ccc21)C(=O)N[C@@H](Cc1ccc(O)cc1)C(=O)N[C@@H](C)C(=O)N[C@@H](C)C(=O)N1CCC[C@H]1C(=O)N[C@@H](Cc1ccccc1)C(=O)N[C@@H](C)C(=O)N[C@@H](CCCCN)C(=O)N[C@@H](CCCCN)C(=O)N[C@@H](CCCCN)C(N)=O gave a half-life of 0.0833 ± 0.0167 h (CE-LIF; HeLa cytosolic lysate; 37 °C).
The half-life of Cc1onc(-c2ccccc2)c1-c1ccc(S(=O)(=O)Cl)cc1 is reported as 0.4 h (chemical stability, HPLC-MS; borate buffered saline; pH 10.2, no N-acetyl-lysine).
For O=c1c(-c2cnn(-c3ccccc3)c2)c(C(F)(F)F)oc2c(O)c(O)ccc12, the half-life was > 8.33 h (human plasma).
CCCC/C=C/C(=O)N[C@@H](Cc1cc(F)cc(F)c1)C(=O)N[C@@H]1C(=O)N2CCC[C@H]2C(=O)N(C)[C@@H](C)C(=O)N[C@@H](C)C(=O)N2CCC[C@H]2C(=O)O[C@H]1C gave a half-life of 41.7 h (H-D exchange, 1H NMR, measured: alanine amide hydrogen; CD3OD; 25 °C).
For O=Cc1cc(C(F)(F)F)cc(C(F)(F)F)c1, the half-life was 5.7 h (chemical stability, HPLC-MS; borate buffered saline; pH 10.2, no N-acetyl-lysine).
C=Cc1c(C)noc1C has a half-life of 14.5 h (pH 7.4).
The half-life of Cc1c(Cc2ccc(Cl)c(O[C@@H](C)C(=O)O)c2)c2ccc(C(=O)N[C@@H](C)c3ccc(C(C)(C)C)cc3)cc2n1CC1CCC1 is reported as > 1 h (mouse liver microsomes; 1 µM, added: microsomes 1 mg/mL).
With CCOC(=O)C12CC(N)(C1)C2 the half-life was 0.2 h (metabolic stability; human liver microsomes).
The half-life of Cc1c(Cc2cccc(OC(C)(C)C(=O)O)c2)c2ccc(C(=O)N[C@H](C)c3cccc(C(C)(C)C)c3)cc2n1C is reported as 0.551 h (human liver microsomes).
For CCN(CC)c1ccc2cc(C(=O)ON3C(=O)CCC3=O)c(=O)oc2c1, the half-life was < 0.0167 h (reactivity with N-α-acetyl-lysine, HPLC-MS; pH 10.2).
C#Cc1nccs1 gave a half-life of 80.9 h (pH 7.4).
Cc1c(Cc2cccc(OC(C)(C)C(=O)O)c2)c2ccc(C(=O)N[C@@H](C)c3cccc(C(C)(C)C)c3)cc2n1CC1CCC1 has a half-life of > 1 h (human liver microsomes; 1 µM, added: microsomes 1 mg/mL).
For CC(C)C[C@H](NC(=O)[C@H](Cc1ccc(O)cc1)NC(=O)[C@H](CC(N)=O)NC(=O)[C@H](CO)NC(=O)[C@H](CCCNC(=N)N)NC(=O)[C@H](Cc1ccc(O)cc1)NC(=O)CNC(=O)[C@H](CCCNC(=N)N)NC(=O)[C@H](Cc1c[nH]cn1)NC(=O)[C@H](CO)NC(=O)[C@H](Cc1c[nH]cn1)NC(=O)[C@H](Cc1c[nH]cn1)NC(=O)[C@H](CCCCN)NC(=O)[C@H](CCC(=O)O)NC(=O)[C@H](Cc1c[nH]cn1)NC(=O)[C@H](Cc1ccccc1)NC(=O)[C@H](CCCCN)NC(=O)[C@H](CCCNC(=N)N)NC(=O)[C@H](CCCCN)NC(=O)[C@H](Cc1ccc(O)cc1)NC(=O)CNC(=O)[C@H](Cc1c[nH]cn1)NC(=O)[C@H](Cc1c[nH]cn1)NC(=O)[C@H](CCCNC(=N)N)NC(=O)[C@H](CCCCN)NC(=O)[C@H](C)NC(=O)[C@H](Cc1c[nH]cn1)NC(=O)[C@H](CO)NC(=O)[C@@H](N)CC(=O)O)C(=O)N[C@@H](Cc1ccc(O)cc1)C(=O)N[C@@H](CC(=O)O)C(=O)N[C@@H](CC(N)=O)C(=O)O, the half-life was 7.2 ± 5.5 h (human parotid secretion; 37 °C, mean, no protease inhibitors).
The half-life of C/C(N)=N/C(=N\S(=O)(=O)c1ccc(C(F)(F)F)cc1)N1C[C@H](c2ccccc2)C(c2ccc(Cl)cc2)=N1 is reported as > 2 h (dog liver cytosol).
The half-life of O=Cn1nnc2ccccc21 is reported as 27.7 h (reactivity with N-α-acetyl-lysine, HPLC-MS; pH 10.2).
O=C1CCC(N2Cc3c(NC(=O)OCc4cc(C(=O)O)ccc4OP(=O)(O)O)cccc3C2=O)C(=O)N1 (stereo not drawn) gave a half-life of > 2 h (HBSS; 10 µM, 2 h incubation, pH 6.5).

Some of these lines once more:
For O=C(NC1CCC(F)(F)CC1)C(c1cncnc1)N(C(=O)C(F)Cl)c1ccc(OC(F)(F)F)cc1 (stereo not drawn), the half-life was > 2.42 h (mouse liver microsomes; concentration not given, pH 7.4).
For CCOC(=O)[C@H](CCCNC(N)=O)NC(=O)[C@H](Cc1c[nH]c2ccccc12)NC(=O)[C@@H]1CCCCN1C(=O)[C@H](Cc1ccccc1)N(C)C(=O)CCl, the half-life was 22.6 h (MALDI MS; PaTu 8988t conditioned DMEM; 10 µM).
For Cc1noc(C)c1Br, the half-life was 837 h (pH 7.4).
The half-life of Cc1cc(C)nc(SCC(=O)Nc2ncc(Cc3cccc4ccccc34)s2)n1 is reported as > 24 h (male human serum; 150 µM, 37 °C).
With O=C(N1CCCCC1)C12CC(c3ccccc3)(C1)C2(Cl)Cl the half-life was 0.433 h (metabolic stability; human liver microsomes; 2 µM, pH 7.4).
OB(O)c1sccc1/C=N/OCc1ccccc1 gave a half-life of 1.97 h (UV-visible spectroscopy; PBS; 80 µM, pH 7.4).
